Published values pooled from the literature.
Each numbered part is a random draw from the data of one study; scales do not carry over between parts. Changes are numbered by the printed parent chain.

Series 1
Target: RNA binding protein fox-1 homolog 2, RRM domain, GST-SBP tag (RBFOX2, Homo sapiens, UniProt O43251-10, residues 100-194)
Technique: RNA Bind-n-Seq
Form: RNA
Medium: in vitro
Tested at: 365 nM
Notes: natural RNA segment, single round, ends assumed
Baseline: no-protein control
Reading: higher = stronger binding
Residues (chain): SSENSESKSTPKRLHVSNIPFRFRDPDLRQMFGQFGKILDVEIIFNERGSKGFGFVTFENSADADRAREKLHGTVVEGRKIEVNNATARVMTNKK
`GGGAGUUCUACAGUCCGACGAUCAUUUAUAUUUCUCUGUGCAUAUAUAGUAUUUAUCUUUUCUAAUCACUUGUUUCUGUGUAGGAGGUUGAGCUUGUCUUCCAAAAGCCAAGGCGAUGCUACACUGUCCUGUUUGGAAUUCUCGGGUGCCAA`: “RBNS enrichment (R)” 0.71.
For `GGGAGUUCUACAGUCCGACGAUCAGGAUUUUGGAUGUAUAAUCUAAAACUCAACAAUAAAGAAAUAAUAUUCCAAGUCUCUGGUUUCCUAAGAUACAUAAUAACUGUUUAUAAAGAAGGUCUAAGAGCUGAUAUGGAAUUCUCGGGUGCCAA`, “RBNS enrichment (R)” read 0.336.
Under “RBNS enrichment (R)”, `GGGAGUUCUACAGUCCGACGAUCAAAUGAUAGGCCCUACCUUUGAAGUUUCUAAGACUUAUUAUGGGAUGUAAAUCUGUUUUUUAAAAACACUUUUUAGGGGCUUGAGAGCUGCCACCUGGCAUUUAGUUUAGUGGAAUUCUCGGGUGCCAA` is recorded as 0.44.
`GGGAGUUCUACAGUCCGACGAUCCAAAGAGUCCUAAGGAGUUAAAUCUUCCAGGUAUUUUCCACUUAGUAUUGCAGCCAAAGAAUAUUUAAAUAAACGUCUUUGCUGCGCUUGCAUCCAUGCCCAGCCAAUAUUGGAAUUCUCGGGUGCCAA`: “RBNS enrichment (R)” 0.661.
For `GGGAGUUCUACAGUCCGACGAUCUCAGUGAUUGUAAGUUUGCCUGAUACUCAGCACACAUCUAUGUUUUCCUAUGAGCAGUUCAACCUGUGCCUGCAAAGCCAAAGGGGCUGAGGUACAUUAGAGCAUGGAGGUGGAAUUCUCGGGUGCCAA`, “RBNS enrichment (R)” read 1.08.
For `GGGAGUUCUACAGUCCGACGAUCUUUUUCAACUUUGUUUCCUGUUUAACUACAGAUGACUUCUGUUGUAGACUCACAAGUUUAACUGUUGUAUUAUAACAGUAUUACAUGUCAACAGUGUGGUUAUGACCUUUUGGAAUUCUCGGGUGCCAA`, “RBNS enrichment (R)” read 0.27.
For `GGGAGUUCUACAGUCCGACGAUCGUUGUGGCCCUCACUACCAAGCCACGGGCAGCCCAUUUCCAGUAGGAUGGCGGUUUGGAUUUCUUUGCUCAGAGCCAAUGCAGUUGACACAGUGGCUGCUGGGUUACUGUUGGAAUUCUCGGGUGCCAA`, “RBNS enrichment (R)” read 0.442.
`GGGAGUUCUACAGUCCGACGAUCGACGGGAGGUGGCUGCAGGAAGAGGAUGCCUCAGGGAUGCCGGACAUUUCCGUGUUCUAUUCCAGAGUGUUCUCUUCUCCCAGAGAACACUGGAACGUCCUCACAGGGAUUGGAAUUCUCGGGUGCCAA` — result for “RBNS enrichment (R)”: 0.55.

Series 2
Target: Histone acetyltransferase KAT6A, winged helix 2, GST fusion (KAT6A, Homo sapiens, UniProt Q92794, residues 85-181)
Technique: protein binding microarray
Form: double-stranded DNA, one strand shown
Medium: in vitro
Tested at: not given
Notes: 8-mer, flanks averaged, mean of 2 arrays, mostly near background
Baseline: not given
Reading: higher = stronger binding
Construct (chain): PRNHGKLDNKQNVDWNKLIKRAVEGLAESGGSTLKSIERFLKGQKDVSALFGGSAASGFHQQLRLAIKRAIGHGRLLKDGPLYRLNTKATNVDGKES
With `ATGCAAGG` the E-score was -0.164.
For `TACAGACA`, the E-score was 0.143.
The E-score of `GCCAGGCC` is reported as 0.083.
With `AGATTATC` the E-score was -0.153.
The E-score of `ACCCAGAT` is reported as 0.0174.
`CTTATAAA` has an E-score of 0.0261.
For `GACAGAAC`, the E-score was -0.0384.
`AAGGCGAT` gave an E-score of 0.0423.
For `CTGGCAGC`, the E-score was 0.0503.
`CACCGTTA` gave an E-score of 0.0425.
`GCTCGTTA` has an E-score of 0.0299.
`TAGTTGGA` has an E-score of 0.0601.
The E-score of `AAGAATTC` is reported as 0.0208.
`GGATACCC` has an E-score of 0.0447.
The E-score of `ACACTCGT` is reported as -0.0505.
`CTACGTAC` has an E-score of -0.0852.
`AGTTAAGC` gave an E-score of -0.0662.
With `GGCTTTAC` the E-score was -0.0887.
`AAATATAC` gave an E-score of -0.143.
With `CCCATATA` the E-score was -0.224.
The E-score of `AGCTTCAT` is reported as 0.00023.

Series 3
Target: Prothrombin, mature alpha-thrombin (F2, Homo sapiens, UniProt P00734)
Technique: aptamer microarray, sandwich
Form: DNA with 2'F-ANA
Medium: in vitro
Tested at: 200 nM
Notes: whole 15-mer aptamer, many near background
Together with: Cy3 exosite-II aptamer, 400 nM
Reading: higher = stronger binding
Oligonucleotide: GGTTGGTGTGGTTGG
Under “mean fluorescence intensity”, `2'F-ANA at 4 6 7 8 13 14` is recorded as 96.4 a.u.
`2'F-ANA at 4 5 7 8 11 12 13 14` — result for “mean fluorescence intensity”: 55.3 a.u.
`2'F-ANA at 1 6 11 14` — result for “mean fluorescence intensity”: 62.7 a.u.
`2'F-ANA at 1 4 8 9 11 12 13 14 15`: “mean fluorescence intensity” 54.1 a.u.
`2'F-ANA at 2 3 5 6 10 11 12 14 15`: “mean fluorescence intensity” 49 a.u.
`2'F-ANA at 2 3 7 8 9 10 11 13`: “mean fluorescence intensity” 345 a.u.
For `2'F-ANA at 1 6 8 9 12 13 14 15`, “mean fluorescence intensity” read 69.1 a.u.
`2'F-ANA at 1 3 7 8 11 13 14 15` — result for “mean fluorescence intensity”: 101 a.u.
For `2'F-ANA at 1 2 4 7 10 12 13 15`, “mean fluorescence intensity” read 77.5 a.u.
`2'F-ANA at 1 3 7 8 14`: “mean fluorescence intensity” 110 a.u.
Under “mean fluorescence intensity”, `2'F-ANA at 1 3 6 7 9 11 12 14` is recorded as 110 a.u.
For `2'F-ANA at 1 5 6 7 8 10 11 12 14 15`, “mean fluorescence intensity” read 49.1 a.u.
For `2'F-ANA at 1 3 4 5 6 7 8 10 11 12 14 15`, “mean fluorescence intensity” read 50.2 a.u.
For `2'F-ANA at 1 2 3 5 7 8 9 10 11 12 14`, “mean fluorescence intensity” read 46.3 a.u.
For `2'F-ANA at 4 5 6 7 9 13 14`, “mean fluorescence intensity” read 44.3 a.u.
Under “mean fluorescence intensity”, `2'F-ANA at 1 2 3 4 5 6 7 8 12 14` is recorded as 49.3 a.u.
`2'F-ANA at 1 2 4 8 9 12 13 15` — result for “mean fluorescence intensity”: 201 a.u.
For `2'F-ANA at 1 2 4 8 9 10 12 13 14`, “mean fluorescence intensity” read 51 a.u.
For `2'F-ANA at 1 4 6 8 15`, “mean fluorescence intensity” read 152 a.u.
`2'F-ANA at 1 2 3 5 6 7 12 14`: “mean fluorescence intensity” 42.8 a.u.
Under “mean fluorescence intensity”, `2'F-ANA at 3 4 6 7 8 12 15` is recorded as 999 a.u.
`2'F-ANA at 3 6 7 8 9 11 12`: “mean fluorescence intensity” 1120 a.u.
`2'F-ANA at 2 5 6 7 15`: “mean fluorescence intensity” 74.4 a.u.
`2'F-ANA at 2 4 7 8 9 11` — result for “mean fluorescence intensity”: 324 a.u.

Series 4
Target: CCNA1, cyclin fold, Cln2 fusion (human)
Technique: yeast growth competition, sequencing
Medium: yeast
Notes: weak parent motif
Baseline: not given
Reading: higher = stronger binding
Parent: CDC6 docking peptide (human); TLKGRRLVFDNQL; partner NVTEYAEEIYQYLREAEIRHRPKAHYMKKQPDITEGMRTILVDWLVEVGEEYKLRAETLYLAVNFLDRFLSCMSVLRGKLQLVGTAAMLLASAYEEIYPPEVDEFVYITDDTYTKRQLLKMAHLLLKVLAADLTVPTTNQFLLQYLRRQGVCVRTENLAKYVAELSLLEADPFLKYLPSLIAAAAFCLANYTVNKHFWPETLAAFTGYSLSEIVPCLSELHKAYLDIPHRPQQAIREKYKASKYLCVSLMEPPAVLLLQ
For `THKGRRLVFDNQL [L2H]`, “normalised enrichment score” read 0.0721.
Under “normalised enrichment score”, `TLVGRRLVFDNQL [K3V]` is recorded as 0.431.
For `TLKGRRLVFDNQM [L13M]`, “normalised enrichment score” read 0.233.
Under “normalised enrichment score”, `TLKGRRLVDDNQL [F9D]` is recorded as 0.268.
`TLKQRRLVFDNQL [G4Q]`: “normalised enrichment score” 0.333.
`TLKGRRLVFDHQL [N11H]` — result for “normalised enrichment score”: 0.155.
`TLKGRRKVFDNQL [L7K]` — result for “normalised enrichment score”: 0.286.
`TLKGRRLVFDNQQ [L13Q]` — result for “normalised enrichment score”: 0.434.
For `TLKGRRSVFDNQL [L7S]`, “normalised enrichment score” read 0.000771.
`TLKGRRLVFDNSL [Q12S]` — result for “normalised enrichment score”: -0.00251.
Under “normalised enrichment score”, `TTKGRRLVFDNQL [L2T]` is recorded as -0.104.
For `TLKGRRLVFTNQL [D10T]`, “normalised enrichment score” read -0.0608.
For `TLKGRRLVFDNEL [Q12E]`, “normalised enrichment score” read -0.0623.
`TLKGRRPVFDNQL [L7P]`: “normalised enrichment score” -0.156.
`TLKGRRLVGDNQL [F9G]` — result for “normalised enrichment score”: 0.151.
`TLWGRRLVFDNQL [K3W]` — result for “normalised enrichment score”: -0.199.
`TLKGLRLVFDNQL [R5L]` — result for “normalised enrichment score”: 0.379.
`TLKWRRLVFDNQL [G4W]`: “normalised enrichment score” -0.0537.
For `TLKGRRLVFDNYL [Q12Y]`, “normalised enrichment score” read 0.56.
`TLYGRRLVFDNQL [K3Y]`: “normalised enrichment score” 0.435.
Under “normalised enrichment score”, `TLMGRRLVFDNQL [K3M]` is recorded as 0.109.
For `TLKGRRLVFDNWL [Q12W]`, “normalised enrichment score” read 0.421.
For `TLKGRRLTFDNQL [V8T]`, “normalised enrichment score” read 0.25.
`TLKGRRLVFKNQL [D10K]` — result for “normalised enrichment score”: 0.142.

Repeated from above (series 3):
Under “mean fluorescence intensity”, `2'F-ANA at 1 3 6 7 9 11 12 14` is recorded as 110 a.u.
For `2'F-ANA at 1 5 6 7 8 10 11 12 14 15`, “mean fluorescence intensity” read 49.1 a.u.
For `2'F-ANA at 1 3 4 5 6 7 8 10 11 12 14 15`, “mean fluorescence intensity” read 50.2 a.u.
For `2'F-ANA at 1 2 3 5 7 8 9 10 11 12 14`, “mean fluorescence intensity” read 46.3 a.u.
For `2'F-ANA at 4 5 6 7 9 13 14`, “mean fluorescence intensity” read 44.3 a.u.
Under “mean fluorescence intensity”, `2'F-ANA at 1 2 3 4 5 6 7 8 12 14` is recorded as 49.3 a.u.
`2'F-ANA at 1 2 4 8 9 12 13 15` — result for “mean fluorescence intensity”: 201 a.u.
For `2'F-ANA at 1 2 4 8 9 10 12 13 14`, “mean fluorescence intensity” read 51 a.u.
For `2'F-ANA at 1 4 6 8 15`, “mean fluorescence intensity” read 152 a.u.
`2'F-ANA at 1 2 3 5 6 7 12 14`: “mean fluorescence intensity” 42.8 a.u.
Under “mean fluorescence intensity”, `2'F-ANA at 3 4 6 7 8 12 15` is recorded as 999 a.u.
`2'F-ANA at 3 6 7 8 9 11 12`: “mean fluorescence intensity” 1120 a.u.
